# Assay results pooled from the literature.
# Every numbered part comes from another study and shows a few of its results, in no order.
# Chain of UniProt P42336 (whole entry, unmodified, looked up): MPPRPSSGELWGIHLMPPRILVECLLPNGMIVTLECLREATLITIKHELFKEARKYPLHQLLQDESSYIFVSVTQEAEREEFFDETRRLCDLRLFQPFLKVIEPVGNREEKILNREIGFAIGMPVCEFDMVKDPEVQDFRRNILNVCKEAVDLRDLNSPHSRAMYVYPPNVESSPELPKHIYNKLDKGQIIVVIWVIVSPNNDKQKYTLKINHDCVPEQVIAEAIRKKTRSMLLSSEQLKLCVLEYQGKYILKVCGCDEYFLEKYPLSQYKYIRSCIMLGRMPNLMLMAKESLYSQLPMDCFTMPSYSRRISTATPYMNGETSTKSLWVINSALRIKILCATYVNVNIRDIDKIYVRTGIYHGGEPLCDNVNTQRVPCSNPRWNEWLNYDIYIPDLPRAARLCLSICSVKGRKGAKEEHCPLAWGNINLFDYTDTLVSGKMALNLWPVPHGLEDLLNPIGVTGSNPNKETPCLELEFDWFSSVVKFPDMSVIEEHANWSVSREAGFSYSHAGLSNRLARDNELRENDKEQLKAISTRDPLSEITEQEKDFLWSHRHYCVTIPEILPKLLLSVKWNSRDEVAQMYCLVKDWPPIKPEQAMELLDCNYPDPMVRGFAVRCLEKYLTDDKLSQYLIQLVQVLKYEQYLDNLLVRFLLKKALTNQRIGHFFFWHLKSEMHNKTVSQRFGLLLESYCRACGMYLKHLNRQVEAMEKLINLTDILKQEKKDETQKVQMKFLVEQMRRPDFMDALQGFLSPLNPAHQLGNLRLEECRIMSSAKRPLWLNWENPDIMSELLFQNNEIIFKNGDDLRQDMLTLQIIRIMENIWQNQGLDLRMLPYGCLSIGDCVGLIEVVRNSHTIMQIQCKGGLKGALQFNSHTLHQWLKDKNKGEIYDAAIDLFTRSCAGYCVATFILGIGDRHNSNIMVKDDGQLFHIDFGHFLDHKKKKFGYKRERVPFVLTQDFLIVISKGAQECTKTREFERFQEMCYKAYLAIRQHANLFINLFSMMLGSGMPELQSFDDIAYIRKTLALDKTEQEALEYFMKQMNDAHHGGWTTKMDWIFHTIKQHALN
# Chain of UniProt Q04759 (whole entry, looked up): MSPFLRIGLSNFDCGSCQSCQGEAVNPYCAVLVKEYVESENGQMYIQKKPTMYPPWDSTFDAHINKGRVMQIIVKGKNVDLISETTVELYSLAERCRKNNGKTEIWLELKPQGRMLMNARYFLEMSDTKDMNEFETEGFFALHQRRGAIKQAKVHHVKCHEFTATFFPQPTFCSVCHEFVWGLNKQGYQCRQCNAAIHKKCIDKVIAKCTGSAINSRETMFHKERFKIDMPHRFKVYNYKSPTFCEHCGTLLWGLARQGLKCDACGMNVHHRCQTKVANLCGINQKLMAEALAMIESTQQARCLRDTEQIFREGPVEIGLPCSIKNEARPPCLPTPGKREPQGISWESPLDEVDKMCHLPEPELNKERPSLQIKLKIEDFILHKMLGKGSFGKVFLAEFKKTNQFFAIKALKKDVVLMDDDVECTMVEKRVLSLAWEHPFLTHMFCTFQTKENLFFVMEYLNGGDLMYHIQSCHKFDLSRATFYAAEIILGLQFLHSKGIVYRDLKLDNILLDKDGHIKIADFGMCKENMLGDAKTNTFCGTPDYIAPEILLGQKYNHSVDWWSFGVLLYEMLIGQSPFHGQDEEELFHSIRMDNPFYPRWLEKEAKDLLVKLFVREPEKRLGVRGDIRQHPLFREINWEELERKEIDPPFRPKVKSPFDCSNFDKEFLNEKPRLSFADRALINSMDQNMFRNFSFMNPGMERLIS
# Chain of UniProt O75747 (whole entry, looked up): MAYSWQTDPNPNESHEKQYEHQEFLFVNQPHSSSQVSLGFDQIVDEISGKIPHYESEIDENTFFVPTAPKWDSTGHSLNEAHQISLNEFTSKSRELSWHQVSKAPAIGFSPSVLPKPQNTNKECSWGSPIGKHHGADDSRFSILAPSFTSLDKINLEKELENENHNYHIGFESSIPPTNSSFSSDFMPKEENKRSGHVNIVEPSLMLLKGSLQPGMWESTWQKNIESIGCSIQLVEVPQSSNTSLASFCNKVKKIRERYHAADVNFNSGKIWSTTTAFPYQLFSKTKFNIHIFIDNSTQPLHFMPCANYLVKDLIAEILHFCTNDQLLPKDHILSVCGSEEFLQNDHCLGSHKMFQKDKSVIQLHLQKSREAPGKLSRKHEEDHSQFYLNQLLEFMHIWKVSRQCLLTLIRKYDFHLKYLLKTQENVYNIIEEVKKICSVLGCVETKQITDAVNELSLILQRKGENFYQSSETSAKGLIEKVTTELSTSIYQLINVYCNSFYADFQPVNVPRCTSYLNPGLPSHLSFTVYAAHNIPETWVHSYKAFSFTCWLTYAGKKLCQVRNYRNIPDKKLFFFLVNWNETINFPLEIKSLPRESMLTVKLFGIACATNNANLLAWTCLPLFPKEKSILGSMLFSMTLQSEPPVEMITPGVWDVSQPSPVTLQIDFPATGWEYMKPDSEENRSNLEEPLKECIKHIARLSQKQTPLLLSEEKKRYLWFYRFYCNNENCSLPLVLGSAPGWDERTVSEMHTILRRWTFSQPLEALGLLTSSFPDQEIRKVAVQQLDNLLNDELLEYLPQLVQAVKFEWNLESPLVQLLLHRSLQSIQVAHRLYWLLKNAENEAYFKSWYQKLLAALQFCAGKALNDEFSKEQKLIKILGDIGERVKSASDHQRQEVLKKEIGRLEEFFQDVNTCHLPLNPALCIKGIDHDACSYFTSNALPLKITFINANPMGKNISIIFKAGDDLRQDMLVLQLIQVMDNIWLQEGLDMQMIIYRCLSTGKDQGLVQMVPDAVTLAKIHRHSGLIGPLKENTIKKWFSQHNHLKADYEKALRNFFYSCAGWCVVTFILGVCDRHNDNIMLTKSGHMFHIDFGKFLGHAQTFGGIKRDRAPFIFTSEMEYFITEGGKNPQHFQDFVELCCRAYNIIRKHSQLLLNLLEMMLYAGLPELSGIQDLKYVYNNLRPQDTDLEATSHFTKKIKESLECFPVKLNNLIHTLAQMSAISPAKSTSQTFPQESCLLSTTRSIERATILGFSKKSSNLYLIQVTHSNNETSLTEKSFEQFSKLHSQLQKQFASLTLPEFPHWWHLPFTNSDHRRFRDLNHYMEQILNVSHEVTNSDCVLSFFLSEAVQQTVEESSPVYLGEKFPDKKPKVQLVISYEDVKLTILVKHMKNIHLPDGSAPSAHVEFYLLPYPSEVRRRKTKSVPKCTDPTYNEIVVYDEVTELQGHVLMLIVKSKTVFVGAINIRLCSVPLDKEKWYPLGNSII
# Chain of UniProt P49674 (whole entry, looked up): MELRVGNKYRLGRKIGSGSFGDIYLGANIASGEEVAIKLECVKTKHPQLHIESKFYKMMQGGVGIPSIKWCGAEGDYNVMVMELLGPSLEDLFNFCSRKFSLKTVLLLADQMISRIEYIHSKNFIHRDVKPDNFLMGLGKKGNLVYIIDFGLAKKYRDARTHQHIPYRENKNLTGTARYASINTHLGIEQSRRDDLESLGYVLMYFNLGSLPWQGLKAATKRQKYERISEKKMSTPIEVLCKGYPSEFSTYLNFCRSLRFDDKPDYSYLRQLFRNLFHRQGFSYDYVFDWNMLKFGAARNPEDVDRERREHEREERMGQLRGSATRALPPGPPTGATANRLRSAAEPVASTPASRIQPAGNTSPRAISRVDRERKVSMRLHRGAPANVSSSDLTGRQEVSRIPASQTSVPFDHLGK
# Chain of UniProt Q8NE63 (whole entry, looked up): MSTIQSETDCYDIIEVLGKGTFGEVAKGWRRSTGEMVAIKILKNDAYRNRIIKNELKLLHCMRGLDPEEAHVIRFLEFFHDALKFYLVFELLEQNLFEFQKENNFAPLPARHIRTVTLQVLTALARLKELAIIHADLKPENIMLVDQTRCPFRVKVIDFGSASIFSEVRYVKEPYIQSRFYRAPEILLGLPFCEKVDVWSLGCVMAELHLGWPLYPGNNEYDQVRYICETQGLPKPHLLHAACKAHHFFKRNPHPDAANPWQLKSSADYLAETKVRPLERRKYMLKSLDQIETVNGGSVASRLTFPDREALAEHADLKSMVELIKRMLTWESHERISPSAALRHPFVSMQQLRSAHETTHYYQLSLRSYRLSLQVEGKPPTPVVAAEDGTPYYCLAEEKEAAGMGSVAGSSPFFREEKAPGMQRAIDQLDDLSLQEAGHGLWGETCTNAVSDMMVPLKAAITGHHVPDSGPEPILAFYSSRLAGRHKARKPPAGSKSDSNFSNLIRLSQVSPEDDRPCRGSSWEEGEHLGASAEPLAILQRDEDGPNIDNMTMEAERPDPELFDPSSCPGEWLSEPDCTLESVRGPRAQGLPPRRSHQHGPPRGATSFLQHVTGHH
# Chain of UniProt Q15835 (whole entry, looked up): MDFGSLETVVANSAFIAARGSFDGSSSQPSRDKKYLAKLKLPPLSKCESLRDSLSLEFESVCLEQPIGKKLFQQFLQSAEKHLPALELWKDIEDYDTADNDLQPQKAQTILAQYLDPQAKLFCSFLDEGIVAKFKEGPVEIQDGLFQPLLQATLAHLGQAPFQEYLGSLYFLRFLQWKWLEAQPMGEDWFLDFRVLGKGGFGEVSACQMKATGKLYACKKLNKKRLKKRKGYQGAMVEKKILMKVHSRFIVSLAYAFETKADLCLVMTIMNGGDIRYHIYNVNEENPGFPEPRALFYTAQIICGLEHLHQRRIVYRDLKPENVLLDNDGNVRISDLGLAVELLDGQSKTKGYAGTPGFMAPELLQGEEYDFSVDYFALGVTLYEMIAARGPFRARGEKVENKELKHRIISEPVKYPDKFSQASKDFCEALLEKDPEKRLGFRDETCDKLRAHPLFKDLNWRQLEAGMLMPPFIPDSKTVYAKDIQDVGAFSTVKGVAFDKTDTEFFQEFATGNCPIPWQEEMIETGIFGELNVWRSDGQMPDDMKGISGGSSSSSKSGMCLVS

# Set 1 — Compound: O=C1c2ccccc2-c2nc3nnnn3nc21; read-out: enzyme activity; mode: inhibitor; concentration: 0.5 µM; relative to: control
target,remaining activity
"TEC (Homo sapiens, UniProt P42680)",2.44%
"CSNK1D (Homo sapiens, UniProt P48730)",86.8%
"CAMK1 (Homo sapiens, UniProt Q14012)",68.7%
"RPS6KA3 (Homo sapiens, UniProt P51812)",75.1%
"FLT1 (Homo sapiens, UniProt P17948)",3.06%
"JAK1 (Homo sapiens, UniProt P23458)",101%
"MAP3K20 (Homo sapiens, UniProt Q9NYL2)",69.8%
"CLK1 (Homo sapiens, UniProt P49759)",79.4%
"EPHA6 (Homo sapiens, UniProt Q9UF33)",106%
"CLK2 (Homo sapiens, UniProt P49760)",92.1%
"PAK6 (Homo sapiens, UniProt Q9NQU5)",108%
"PRKCZ (Homo sapiens, UniProt Q05513)",99.1%
"CAMKK1 (Homo sapiens, UniProt Q8N5S9)",74.9%
"PRKCQ (Homo sapiens, UniProt Q04759)",83%
"IGF1R (Homo sapiens, UniProt P08069)",91.1%
"CSNK1E (Homo sapiens, UniProt P49674)",80.6%
"Cyclin-dependent kinase 2, with cyclin E (CDK2, Homo sapiens, UniProt P24941)",80.6%
"SGK2 (Homo sapiens, UniProt Q9HBY8)",75.1%
"EPHA2 (Homo sapiens, UniProt P29317)",100%
"SRPK1 (Homo sapiens, UniProt Q96SB4)",109%
"TYRO3 (Homo sapiens, UniProt Q06418)",33.3%

# Set 2 — read-out: cell-free assay; technique: competition with immobilised ligand; concentration: 1 µM
# Structure (SMILES): N#Cc1ccc(Nc2ccc3[nH]c(=O)[nH]c3c2)c(Cl)c1
target,remaining binding
"HIPK4 (Homo sapiens, UniProt Q8NE63)",100%
"DCLK1 (Homo sapiens, UniProt O15075)",84%
"GRK1 (Homo sapiens, UniProt Q15835)",100%
"FGR (Homo sapiens, UniProt P09769)",100%
"EPHA4 (Homo sapiens, UniProt P54764)",100%
"STK17A (Homo sapiens, UniProt Q9UEE5)",94%
"PIP4K2C (Homo sapiens, UniProt Q8TBX8)",100%
"ZAP70 (Homo sapiens, UniProt P43403)",90%
"EIF2AK1 (Homo sapiens, UniProt Q9BQI3)",100%
"TESK1 (Homo sapiens, UniProt Q15569)",100%
"TGFBR1 (Homo sapiens, UniProt P36897)",100%
"PIK3C2G (Homo sapiens, UniProt O75747)",95%
"COQ8A (Homo sapiens, UniProt Q8NI60)",100%
"NEK2 (Homo sapiens, UniProt P51955)",93%
"PRKCQ (Homo sapiens, UniProt Q04759)",90%
"PIK3CA (Homo sapiens, UniProt P42336, M1043I)",100%
"FLT3 (Homo sapiens, UniProt P36888, F691L/ITD)",100%
"PRKCE (Homo sapiens, UniProt Q02156)",100%
"MYLK3 (Homo sapiens, UniProt Q32MK0)",93%
"PIK3CA (Homo sapiens, UniProt P42336, I800L)",77%
"IKBKB (Homo sapiens, UniProt O14920)",89%
"BRSK2 (Homo sapiens, UniProt Q8IWQ3)",100%
"NTRK3 (Homo sapiens, UniProt Q16288)",100%
"eIF-2-alpha kinase GCN2, C-terminal kinase domain (EIF2AK4, Homo sapiens, UniProt Q9P2K8, S808G)",93%

# Set 3 — cell line: HaCaT; concentration: 100 µM; time: 36 h
Compound,viability [%]
COc1ccc2c(c1)C(=O)N(CCc1ccc(S(=O)(=O)NC(=O)NC3CCCCC3)cc1)C(=O)C2(C)C,67.1
CNC(=O)c1ccccc1Sc1ccc2c(/C=C/c3ccccn3)n[nH]c2c1,9.43
O=C(O)c1ccc(-n2nc(-c3ccccc3O)nc2-c2ccccc2O)cc1,44
C[C@H]1C[C@@H]2[C@H]([C@@H](O)C[C@@]3(C)[C@H]2CC[C@]3(O)C(=O)CO)[C@@]2(C)C=CC(=O)C=C12,89.7
CC1=NN(c2ccccc2)C(=O)C1,56.9
COC(=O)Nc1nc2ccc(Sc3ccccc3)cc2[nH]1,20.1
COc1ccccc1N1CCN(CC(O)COc2cccc3ccccc23)CC1 (stereo not drawn),4.32
C[C@@H]1C[C@H]2[C@@H]3CCC4=CC(=O)C=C[C@]4(C)[C@@]3(Cl)[C@@H](O)C[C@]2(C)[C@@]1(OC(=O)c1ccco1)C(=O)CCl,13.7
O=C(O)CCC(=O)Nc1ccc(S(=O)(=O)Nc2nccs2)cc1,97.2

# Set 4 — technique: logD(dd/w) and ALogP; setting: JT method
SMILES,lipophilic permeability efficiency
CC(C)C[C@@H]1NC(=O)[C@H](CC(C)C)NC(=O)[C@@H](CC(C)C)NC(=O)[C@@H](C(C)C)NC(=O)[C@H](C(C)C)NC(=O)[C@H](CC(C)C)NC(=O)[C@@H](CC(C)C)NC1=O,3.29
CC(C)C[C@@H]1NC(=O)[C@@H](C)NC(=O)[C@H](C)NC(=O)[C@@H](CC(C)C)NC(=O)[C@H](C(C)C)NC(=O)[C@H](CC(C)C)NC(=O)[C@@H](CC(C)C)NC1=O,1.99
CC(C)C[C@@H]1NC(=O)[C@H](CC(C)C)NC(=O)[C@@H](C(C)C)NC(=O)[C@H](C(C)C)NC(=O)[C@@H](Cc2cscn2)NC(=O)[C@H](C)NC(=O)[C@H](CCC(=O)N2CCCC2)NC1=O,1.51
CC(C)C[C@@H]1NC(=O)[C@H](CC(C)C)NC(=O)[C@@H](CC(C)C)NC(=O)[C@H](C)NC(=O)[C@H](C)NC(=O)[C@@H](CC(C)C)NC(=O)[C@H](C)NC1=O,2.32
CC(C)C[C@@H]1NC(=O)[C@H](CC(C)C)NC(=O)[C@@H](CC(C)C)NC(=O)[C@@H](CC(C)C)NC(=O)[C@H](C)NC(=O)[C@H](CC(C)C)NC(=O)[C@@H](CC(C)C)NC1=O,2.87
CC(C)C[C@@H]1NC(=O)[C@H](CC(C)C)NC(=O)[C@H](CC(C)C)NC(=O)[C@H](CC(C)C)NC(=O)[C@@H](CCC(=O)N2CCCC2)NC(=O)[C@H](C)NC(=O)[C@H](C)NC1=O,2.07
CC(C)C[C@@H]1NC(=O)[C@H](C(C)C)NC(=O)[C@H](Cc2cscn2)NC(=O)[C@H](CC(C)C)NC(=O)[C@@H](CCC(=O)N2CCCC2)NC(=O)[C@H](CC(C)C)NC(=O)[C@@H](CC(C)C)NC1=O,2.09
CC(C)C[C@@H]1NC(=O)[C@H](C)NC(=O)[C@@H](CC(C)C)NC(=O)[C@H](CC(C)C)NC(=O)[C@H](C(C)C)NC(=O)[C@H](CC(C)C)NC(=O)[C@@H](CC(C)C)NC1=O,2.61
CC(C)C[C@@H]1NC(=O)[C@H](CC(C)C)NC(=O)[C@@H](CC(C)C)NC(=O)[C@H](CC(C)C)NC(=O)[C@H](C(C)C)NC(=O)[C@H](Cc2cscn2)NC(=O)[C@H](C)NC1=O,2.64
